Experimental data gathered from unrelated publications.
A part holds a random share of what one study measured. Positions count from the first letter of the parent shown.
Sequence of UniProt O24409 (whole entry, looked up): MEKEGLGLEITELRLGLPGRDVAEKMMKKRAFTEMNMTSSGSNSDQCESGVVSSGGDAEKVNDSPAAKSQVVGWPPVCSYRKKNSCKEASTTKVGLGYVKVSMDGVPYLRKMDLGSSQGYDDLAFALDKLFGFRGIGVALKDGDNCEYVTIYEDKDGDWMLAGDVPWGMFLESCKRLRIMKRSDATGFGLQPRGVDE
Sequence of UniProt Q38828 (whole entry, looked up): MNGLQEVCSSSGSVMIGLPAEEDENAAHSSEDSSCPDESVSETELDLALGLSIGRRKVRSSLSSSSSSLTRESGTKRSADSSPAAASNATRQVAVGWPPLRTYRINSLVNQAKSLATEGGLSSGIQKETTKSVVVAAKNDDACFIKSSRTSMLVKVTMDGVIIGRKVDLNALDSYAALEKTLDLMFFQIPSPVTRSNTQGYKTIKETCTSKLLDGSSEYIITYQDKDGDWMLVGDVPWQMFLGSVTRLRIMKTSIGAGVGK
Sequence of UniProt Q8L7G0 (whole entry, looked up): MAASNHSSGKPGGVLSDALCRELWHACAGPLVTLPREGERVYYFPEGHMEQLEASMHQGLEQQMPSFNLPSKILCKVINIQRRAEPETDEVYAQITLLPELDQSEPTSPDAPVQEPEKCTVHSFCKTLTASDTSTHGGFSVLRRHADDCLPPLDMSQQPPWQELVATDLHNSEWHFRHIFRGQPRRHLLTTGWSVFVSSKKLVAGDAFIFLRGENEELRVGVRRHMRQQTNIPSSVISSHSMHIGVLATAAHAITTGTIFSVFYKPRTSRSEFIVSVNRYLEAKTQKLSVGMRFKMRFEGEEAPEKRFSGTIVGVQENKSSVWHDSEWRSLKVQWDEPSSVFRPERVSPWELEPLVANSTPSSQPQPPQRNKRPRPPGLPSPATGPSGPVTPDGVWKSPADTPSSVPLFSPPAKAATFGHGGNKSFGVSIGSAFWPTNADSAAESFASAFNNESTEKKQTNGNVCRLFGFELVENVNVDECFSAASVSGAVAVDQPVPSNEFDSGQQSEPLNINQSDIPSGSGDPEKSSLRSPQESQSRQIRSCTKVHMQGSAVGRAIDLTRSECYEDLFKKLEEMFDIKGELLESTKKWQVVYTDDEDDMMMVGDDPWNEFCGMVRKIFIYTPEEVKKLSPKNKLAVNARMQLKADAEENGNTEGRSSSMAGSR
Sequence of UniProt O24407 (whole entry, looked up): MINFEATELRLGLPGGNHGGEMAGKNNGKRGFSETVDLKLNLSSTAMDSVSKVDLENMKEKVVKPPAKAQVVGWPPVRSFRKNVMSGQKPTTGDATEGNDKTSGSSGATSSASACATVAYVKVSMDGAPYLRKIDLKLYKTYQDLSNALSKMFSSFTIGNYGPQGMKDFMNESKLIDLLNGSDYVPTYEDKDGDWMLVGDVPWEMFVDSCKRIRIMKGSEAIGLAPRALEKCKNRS
Sequence of UniProt Q9FGV1 (whole entry, looked up): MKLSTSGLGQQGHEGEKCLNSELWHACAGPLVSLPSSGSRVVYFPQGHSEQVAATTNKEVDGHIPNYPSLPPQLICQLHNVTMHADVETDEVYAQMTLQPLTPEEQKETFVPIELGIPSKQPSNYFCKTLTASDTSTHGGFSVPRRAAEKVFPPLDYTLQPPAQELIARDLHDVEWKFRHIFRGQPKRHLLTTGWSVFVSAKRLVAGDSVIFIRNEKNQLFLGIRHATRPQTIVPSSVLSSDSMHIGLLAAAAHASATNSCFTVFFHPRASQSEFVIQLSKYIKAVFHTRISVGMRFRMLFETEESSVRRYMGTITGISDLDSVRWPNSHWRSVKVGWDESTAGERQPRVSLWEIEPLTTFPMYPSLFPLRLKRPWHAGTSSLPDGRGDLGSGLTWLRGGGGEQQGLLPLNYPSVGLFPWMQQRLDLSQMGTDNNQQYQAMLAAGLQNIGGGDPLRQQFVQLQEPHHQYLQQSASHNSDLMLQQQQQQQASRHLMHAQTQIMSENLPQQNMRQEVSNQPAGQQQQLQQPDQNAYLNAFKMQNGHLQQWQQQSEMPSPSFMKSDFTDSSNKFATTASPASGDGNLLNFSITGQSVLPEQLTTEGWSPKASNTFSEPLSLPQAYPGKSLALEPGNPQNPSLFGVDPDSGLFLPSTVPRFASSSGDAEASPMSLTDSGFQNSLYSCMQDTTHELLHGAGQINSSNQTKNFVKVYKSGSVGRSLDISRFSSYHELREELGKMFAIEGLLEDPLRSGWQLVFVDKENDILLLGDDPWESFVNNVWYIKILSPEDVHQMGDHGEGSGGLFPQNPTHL

Study 1
Target: PABPC1L2, full length, GST fusion (mouse, UniProt A0ABA7IW68)
Method: RNAcompete
Form: RNA
Medium: in vitro
Tested at: 20 nM
Setting: 7-mer, probes averaged, single round
Baseline: mean of 7-mers
Direction: higher = stronger binding
Endpoint: 7-mer Z-score
Construct (chain): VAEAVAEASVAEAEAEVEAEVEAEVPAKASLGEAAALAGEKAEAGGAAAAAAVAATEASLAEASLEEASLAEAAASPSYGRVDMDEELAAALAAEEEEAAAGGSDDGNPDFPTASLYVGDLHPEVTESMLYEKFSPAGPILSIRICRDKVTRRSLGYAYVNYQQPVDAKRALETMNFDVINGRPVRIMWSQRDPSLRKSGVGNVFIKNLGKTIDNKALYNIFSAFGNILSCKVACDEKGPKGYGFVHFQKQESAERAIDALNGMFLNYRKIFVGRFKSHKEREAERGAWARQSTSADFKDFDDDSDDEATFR
GAUUGAU: -0.166
GUAUCAC: -0.213
AGUUUAG: -0.184
AUACCAG: -0.0174
ACGACAA: 0.291
CACUCCA: -0.244
CGUGGGA: 0.202
GCUCGCA: -0.315

Study 2
Sequence: B1 (IAA6)
Method: two-hybrid
Baseline: out of 4 tests
Direction: higher = firmer interaction
Endpoint: positive tests
B1: IAA6 (Arabidopsis thaliana, UniProt Q38824); chain MAKEGLALEITELRLGLPGDNYSEISVCGSSKKKKRVLSDMMTSSALDTENENSVVSSVEDESLPVVKSQAVGWPPVCSYRRKKNNEEASKAIGYVKVSMDGVPYMRKIDLGSSNSYINLVTVLENLFGCLGIGVAKEGKKCEYIIIYEDKDRDWMLVGDVPWQMFKESCKRLRIVKRSDATGFGLQQD
IAA19 (Arabidopsis thaliana, UniProt O24409): 0
ARF1 538-665 (Arabidopsis thaliana, UniProt Q8L7G0): 0
IAA16 (Arabidopsis thaliana, UniProt O24407): 1
ARF8 699-811 (Arabidopsis thaliana, UniProt Q9FGV1): 1
IAA10 (Arabidopsis thaliana, UniProt Q38828): 0

Other studies, line by line
P1: viral docking peptide; KGVKRKLFAEDSS; partner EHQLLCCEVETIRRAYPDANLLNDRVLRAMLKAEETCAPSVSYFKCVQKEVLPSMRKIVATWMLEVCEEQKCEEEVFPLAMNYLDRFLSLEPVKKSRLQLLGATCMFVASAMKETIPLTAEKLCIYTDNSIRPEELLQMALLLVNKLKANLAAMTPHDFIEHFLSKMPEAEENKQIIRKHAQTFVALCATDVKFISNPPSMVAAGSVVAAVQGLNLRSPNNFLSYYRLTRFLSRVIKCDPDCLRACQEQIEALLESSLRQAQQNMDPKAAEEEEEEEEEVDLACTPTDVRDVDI
CANX (Homo sapiens, UniProt P27824)
interaction screen (FSIP2 (Homo sapiens, UniProt Q5CZC0); cross-linking MS; hits only): cross-linked

P1 D11W
normalised enrichment score (CCND1, cyclin fold, Cln2 fusion (human); yeast growth competition, sequencing; yeast; strong parent motif; baseline: not given, higher = stronger binding): 0.292

NF1 (Homo sapiens, UniProt P21359)
cross-linked residues (PTBP1 (Homo sapiens, UniProt P26599); cross-linking MS; cell fractions; together with: DSSO): K609 to K436

KMT2D (Homo sapiens, UniProt O14686)
cross-linked residues (NDUFV1 (Homo sapiens, UniProt P49821); cross-linking MS; cell fractions; together with: DSSO): K3563 to K81

PRPF6 (Homo sapiens, UniProt O94906)
cross-linked residues (PRPF31 (Homo sapiens, UniProt Q8WWY3); cross-linking MS; cell fractions; together with: DSSO): K835 to K422

Some of these lines once more (other studies, line by line):
P1 D11W
normalised enrichment score (CCND1, cyclin fold, Cln2 fusion (human); yeast growth competition, sequencing; yeast; strong parent motif; baseline: not given, higher = stronger binding): 0.292

KMT2D (Homo sapiens, UniProt O14686)
cross-linked residues (NDUFV1 (Homo sapiens, UniProt P49821); cross-linking MS; cell fractions; together with: DSSO): K3563 to K81
